Assay results pooled from the literature.
A part holds a random share of what one study measured. Positions count from the first letter of the parent shown.

Series 1 — technique: universal PBM; form: double-stranded DNA, one strand shown; medium: in vitro; tested at: not given; direction: higher = stronger binding; endpoint: E-score
Target: Sal-like protein 4, full length isoform B (SALL4, Homo sapiens, UniProt Q9UJQ4-2, residues 1-616)
Notes: 8-mer, flanks averaged, mean of replicates
AGTAAACC: -0.0151
GGGACGGA: -0.253
CATACACG: 0.134
GTCTATGA: 0.105
CACCAACC: -0.207
AACGCTCG: -0.131

Series 2 — target: CCNE2, cyclin fold, Cln2 fusion (human); technique: yeast growth competition, sequencing; medium: yeast; notes: weak parent motif; reference: not given; direction: higher = stronger binding; endpoint: normalised enrichment score
Starting sequence: ORC1 docking peptide (human); PRARKRLELGNLG
R2P: 0.404
G10V: 0.573
L9Y: 0.427
P1W: 0.435
N11R: 0.694

Series 3 — technique: protein-binding microarray; form: double-stranded DNA, one strand shown; medium: in vitro; tested at: 2200 nM top; notes: 60-bp whole probe; together with: salmon DNA 0.4 mg/ml; reference: random background probes; direction: higher = stronger binding; endpoint: fitted relative affinity
Target: Interferon regulatory factor 7, full length, phosphomimetic (IRF7, Homo sapiens, UniProt Q92985, residues 1-503, S471D/S472D/S475D/S476D/S477D/S483D/S484D/S487D)
Sequence of UniProt Q92985 (whole entry, unmodified, looked up): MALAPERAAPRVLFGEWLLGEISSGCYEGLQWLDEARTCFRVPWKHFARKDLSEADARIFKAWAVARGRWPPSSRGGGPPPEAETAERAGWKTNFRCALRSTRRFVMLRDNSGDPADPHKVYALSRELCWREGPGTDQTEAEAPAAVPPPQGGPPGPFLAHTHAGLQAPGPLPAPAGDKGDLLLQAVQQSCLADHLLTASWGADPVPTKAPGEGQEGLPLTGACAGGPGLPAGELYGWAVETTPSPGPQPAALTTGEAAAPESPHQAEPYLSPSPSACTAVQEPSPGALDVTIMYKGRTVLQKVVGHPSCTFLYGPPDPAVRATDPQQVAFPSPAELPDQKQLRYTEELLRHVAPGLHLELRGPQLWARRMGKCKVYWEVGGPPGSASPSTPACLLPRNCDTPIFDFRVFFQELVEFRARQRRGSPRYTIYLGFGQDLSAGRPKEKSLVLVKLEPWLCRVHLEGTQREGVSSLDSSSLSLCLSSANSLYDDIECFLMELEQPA
Constant ends, left off below: GCCTAGCAC … GTGCTAGGTCTTGATTCGCTTGACGCTGCTG
GACGGTTTCCTACTGCAGAC: 1.87 z-score
TTAGGTTTACTACTGCTTTA: 0.636 z-score
TTAGGTCTACTTTTCCTTTA: 2.59 z-score
CCTCGTCTCTATCAAAAATA: 1.41 z-score
TTAGGTATCGGCCTGGGTTA: -0.131 z-score
TTAGGTTTCCTTATACTTTA: 1.51 z-score
TTAGATTTCAAACTGGATTA: -0.459 z-score
TTAGGGCTGCTTTTCCTTTA: 0.852 z-score

Other studies, line by line
PhoQ, residues 284 288 289 292 302 303 SCCLKL — fold induction (PhoP, residues 12 14 15 18 19 NFCKL (Escherichia coli, UniProt P23836); Sort-seq, measured: YFP reporter; E. coli; PhoQ-PhoP variant library, together with: 10 µM Mg2+; reference: high Mg2+ state, higher = stronger signaling): 10.7

Some of these lines once more (series 1):
GGGACGGA: -0.253
AACGCTCG: -0.131
